Measured values gathered from unrelated publications.
Each numbered part is a random draw from the data of one study; scales do not carry over between parts.

Study 1 — technique: RNA Bind-n-Seq; form: RNA; matrix: in vitro; concentration: 1 µM; setting: whole 134-nt RNA, ends assumed; added: 150 mM KCl; relative to: input library; reading: higher = stronger binding
Target: Ras GTPase-activating protein-binding protein 1, RRM domain (G3BP1, Homo sapiens, UniProt Q13283)
UniProt Q13283, sequence (whole entry, looked up): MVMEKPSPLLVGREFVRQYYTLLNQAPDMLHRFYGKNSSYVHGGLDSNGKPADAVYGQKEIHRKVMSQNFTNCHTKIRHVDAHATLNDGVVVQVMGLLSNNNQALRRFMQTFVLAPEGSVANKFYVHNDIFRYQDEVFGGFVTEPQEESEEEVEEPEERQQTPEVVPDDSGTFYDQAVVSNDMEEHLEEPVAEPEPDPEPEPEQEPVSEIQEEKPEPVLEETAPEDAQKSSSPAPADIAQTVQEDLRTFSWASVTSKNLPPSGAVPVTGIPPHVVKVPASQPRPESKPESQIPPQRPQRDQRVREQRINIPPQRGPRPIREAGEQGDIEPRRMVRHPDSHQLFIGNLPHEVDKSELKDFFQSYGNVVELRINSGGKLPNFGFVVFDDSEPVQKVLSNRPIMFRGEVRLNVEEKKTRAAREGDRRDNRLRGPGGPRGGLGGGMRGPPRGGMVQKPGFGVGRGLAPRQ
Shared flanks, not repeated: GGGAGUUCUACAGUCCGACGAUC … UGGAAUUCUCGGGUGUCAAGG
| Sequence | log2 enrichment |
| --- | --- |
| AGUCCUGUGCUACACAUCGUAUGUACCGAAUCAAAUUUUUAAACCCAAACCCCCAAAAAAGUAUUAUGUUACGCCGUUCGGAUCUGCACU | -0.59 |
| CACAGACAAAACGCACCCACACAGACACAGAGGGAAGGGGUUGGGAUGGGGACAGGGUGCACAGCAGGGCGGGGUAGGACCCCAGCCCCU | -0.146 |
| CCUGUGCUACACAUCGUAUGUACCGAAUCAAAUUUUUUUAAAUUUUUUUAAAUUUUUAAAAAAGUAUUAUGUUACGCCGUUCGGAUCUGC | -0.546 |
| CCUGUGCUACACAUCGUAUGUACCGAAUCGGGGAAAGGGGAAAAAAAGGGGUUUUUGGGGAAAGUAUUAUGUUACGCCGUUCGGAUCUGC | 0.717 |
| CUCAAGUCCUGUGCUACACAUCGUAUGUACCGAAUCGGUUGGGUUGGGGUUGGAAAGUAUUAUGUUACGCCGUUCGGAUCUGCACUUCCA | -0.176 |
| AAGUCCUGUGCUACACAUCGUAUGUACCGAAUCGGGAGGGUUUUUGGGUUUUUGGGAAAGUAUUAUGUUACGCCGUUCGGAUCUGCACUU | 0.381 |
| CCUGUGCUACACAUCGUAUGUACCGAAUCGGGGUUUUUUUGGGGUUUUUGGGGUUUGGGGAAAGUAUUAUGUUACGCCGUUCGGAUCUGC | 0.473 |
| AGUCCUGUGCUACACAUCGUAUGUACCGAAUCGGGGUUUUUGGGGUGGGGUUUGGGGAAAGUAUUAUGUUACGCCGUUCGGAUCUGCACU | 0.522 |
| GUCCUGUGCUACACAUCGUAUGUACCGAAUCGGGGUGGGGAAAAAGGGGAAAAAGGGGAAAGUAUUAUGUUACGCCGUUCGGAUCUGCAC | 0.968 |

Study 2 — technique: RNA Bind-n-Seq; form: RNA; matrix: in vitro; concentration: not given; relative to: input RNA pool; reading: higher = stronger binding
Target: RING finger protein unkempt homolog, zinc fingers 1-6, GST-SBP tag (UNK, Homo sapiens, UniProt Q9C0B0, residues 30-357)
UniProt Q9C0B0, sequence (30-357, looked up): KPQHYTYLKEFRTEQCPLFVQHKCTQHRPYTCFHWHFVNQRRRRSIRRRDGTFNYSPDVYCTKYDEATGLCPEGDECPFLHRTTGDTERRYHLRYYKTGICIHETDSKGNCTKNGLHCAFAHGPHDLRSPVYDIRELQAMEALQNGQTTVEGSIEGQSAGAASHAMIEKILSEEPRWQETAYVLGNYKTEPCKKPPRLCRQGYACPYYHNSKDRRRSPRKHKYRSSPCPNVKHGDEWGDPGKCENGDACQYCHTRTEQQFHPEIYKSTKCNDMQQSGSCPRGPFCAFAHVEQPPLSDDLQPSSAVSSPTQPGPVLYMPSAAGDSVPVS
Setting: RNA with constant flanks, human and mouse sites, ends assumed
Shared flanks, not repeated: GGGAGUUCUACAGUCCGACGAUC … CAACAGAGGAUUGAGCAUCA
| Sequence | bound/input enrichment |
| --- | --- |
| UUCAUCUAUUUGUGUACAAAAUGAUGUCGUUUUGAGGGAAUUUAAGUAUUUAAAUUGCUUCAUAGUCUAAAUUAUUAAUUUUCUUAAUAAAAUAACUGUUUAAACAUUGAUUUGCAGUUA | 3.69 ratio |
| UUCUUUGCCUUCGAGUGUCGCUACCUGGCUGUUCAGCUGUCUCCUGCCAUUCCUGUGUUUGCCGCUAUGCUCUUUCUUUUCUCCAUGGCCACGCUGUUGAGGACAAGUUUCAGUGACCCU | 0.312 ratio |
| AUCAUUAACAGCUUGUUACAAGAAUGGAAAGGUCCACGAACAAAAGAUGAUCUUAGAGCAUAUUUUAUACUGUUACAGAAUCCUCAAUUUAAUAUCACAUCUACAUAUGUCAUCUAUGCU | 3.39 ratio |
| UCCCCUCUCGUGCCACCUCUGUCUCCUCUUCUUCCUCCUCUGUGUCCUUGUCCCUCUUCCUCUUUCUUUCCGUUUCCAAAGGAGCAAGCCAAAACCUCAAACCGGCGCCCCUUGGGGGCC | 0.629 ratio |
| AGAGCGUCCCGAGAGCACCCAUCCGUCCAGGAGAAGAAGAAGUCGACCAUCUGGCAGUUCUUCAGCCGCCUCUUCAGCUCUUCCUCCAGCCCCCCUCCGGCCAAGCGCCCCUAUCCCUCG | 0.281 ratio |
| GACUACAACAUCCAGAAAGAGUCCACUCUGCACUUGGUCCUGCGCUUGAGGGGGGGUGUCUAAGUUUCCCCUUUUAAGGUUUCAACAAAUUUCAUUGCACUUUCCUUUCAAUAAAGUUGU | 0.416 ratio |
| ACAAGUAUUUUAAUUUAAGUUCAGUGAACUUUUUUGUAGCUGGGUUAAAUCUUUUUAUUUUAGUAUGGCCUUAUGGCAAAGAACACUGUAUUAUUUUAAUAAUCACACAAUUGUGACGGA | 3.06 ratio |
| AUCUGUAUUAUCCAUGAAUUCAGUAACCCUCCCAAUGUCCGGAAUAAGGUGCGCAUUCGCAGCUGGAUGGACACUAUAGCAAACAUCAAUCAAGAGCUCAUUAAAUAUGAAUUCUUCCCU | 1.05 ratio |

Study 3 — technique: universal PBM; form: double-stranded DNA, one strand shown; matrix: in vitro; concentration: not given; reading: higher = stronger binding
Target: Sal-like protein 4, full length isoform B (SALL4, Homo sapiens, UniProt Q9UJQ4-2, residues 1-616)
Setting: 8-mer, flanks averaged, mean of replicates
Target sequence (chain): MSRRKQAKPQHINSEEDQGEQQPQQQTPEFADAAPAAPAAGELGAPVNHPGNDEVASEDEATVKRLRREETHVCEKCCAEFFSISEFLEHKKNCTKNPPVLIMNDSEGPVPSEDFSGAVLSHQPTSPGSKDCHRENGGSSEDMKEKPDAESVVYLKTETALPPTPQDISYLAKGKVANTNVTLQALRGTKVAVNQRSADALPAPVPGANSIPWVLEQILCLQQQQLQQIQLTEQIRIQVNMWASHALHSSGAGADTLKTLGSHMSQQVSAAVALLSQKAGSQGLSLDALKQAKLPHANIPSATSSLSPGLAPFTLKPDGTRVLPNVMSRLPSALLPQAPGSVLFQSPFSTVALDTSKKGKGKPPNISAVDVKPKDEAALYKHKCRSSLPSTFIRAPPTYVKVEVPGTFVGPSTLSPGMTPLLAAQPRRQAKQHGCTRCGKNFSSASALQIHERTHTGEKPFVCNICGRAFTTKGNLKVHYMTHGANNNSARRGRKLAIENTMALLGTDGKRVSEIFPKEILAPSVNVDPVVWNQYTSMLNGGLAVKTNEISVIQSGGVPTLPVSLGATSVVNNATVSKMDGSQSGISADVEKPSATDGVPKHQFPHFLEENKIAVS
| Sequence | E-score |
| --- | --- |
| ATGCGAAT | 0.156 |
| CTGAACCA | -0.129 |
| ATTTAAAT | 0.369 |
| CCTACTAC | -0.09 |
| GTTAGTGA | 0.139 |
| GTACAAAC | 0.102 |
| CCGTCGGA | -0.222 |
| GACGAACC | -0.0143 |
| CAGGGGTA | -0.0498 |
| GCGTGCCC | -0.353 |
| GCTCATTA | 0.127 |
| AACTTGGT | 0.189 |
| CTGGTTCA | -0.0887 |
| CCACCCGC | -0.25 |
| AAGTTCTC | -0.0833 |
| GTCCTTTA | -0.0304 |
| TATTTCCA | 0.31 |
| ACGATAAG | 0.111 |
| TCTCGCCA | -0.161 |
| ACATCCCA | -0.107 |
| AAGCACTC | -0.166 |
| CTTGCCCA | -0.0653 |
| ATTTCCCC | 0.00148 |
| ACGGCAGG | -0.375 |
| ATGGATCA | 0.07 |

Study 4 — technique: aptamer microarray, sandwich; form: DNA with 2'F-ANA; matrix: in vitro; concentration: 200 nM; added: Cy3 exosite-II aptamer, 400 nM; reading: higher = stronger binding; sequence: GGTTGGTGTGGTTGG
Target: Prothrombin, mature alpha-thrombin (F2, Homo sapiens, UniProt P00734)
Setting: whole 15-mer aptamer, many near background
| Modification | mean fluorescence intensity [a.u.] |
| --- | --- |
| 2'F-ANA at 2 3 5 7 8 11 12 13 14 | 59 |
| 2'F-ANA at 2 4 5 7 9 14 | 45.4 |
| 2'F-ANA at 3 4 7 10 15 | 323 |
| 2'F-ANA at 2 3 9 10 11 13 14 | 269 |
| 2'F-ANA at 5 6 8 10 11 14 | 44.5 |
| 2'F-ANA at 2 4 5 6 10 11 12 14 | 46.1 |
| 2'F-ANA at 1 2 4 6 11 14 | 53.5 |
| 2'F-ANA at 1 3 5 9 11 13 14 | 46.6 |
| 2'F-ANA at 4 6 14 | 119 |
| 2'F-ANA at 1 5 6 7 9 10 12 13 14 15 | 73.2 |
| 2'F-ANA at 1 2 3 6 7 12 14 15 | 88.2 |
| 2'F-ANA at 2 4 5 6 9 13 14 15 | 50.3 |
| 2'F-ANA at 1 2 7 11 13 | 124 |
| 2'F-ANA at 3 5 6 7 8 10 12 13 14 | 43.1 |
| 2'F-ANA at 1 2 3 5 8 9 11 12 14 | 53.7 |
| 2'F-ANA at 2 4 5 7 8 11 14 | 61 |
| 2'F-ANA at 7 10 14 15 | 125 |

A few entries again (study 3):
| Sequence | E-score |
| --- | --- |
| CAGGGGTA | -0.0498 |
| GCGTGCCC | -0.353 |
| GCTCATTA | 0.127 |
| AACTTGGT | 0.189 |
| CTGGTTCA | -0.0887 |
| CCACCCGC | -0.25 |
| AAGTTCTC | -0.0833 |
| GTCCTTTA | -0.0304 |
| TATTTCCA | 0.31 |
